# Measured values collected from several papers.
# Every numbered part comes from another study and shows a few of its results, in no order.

# Sample 1
# Target: Histone acetyltransferase KAT6A, winged helix 2, GST fusion (KAT6A, Homo sapiens, UniProt Q92794, residues 85-181)
# Technique: protein binding microarray
# Molecule type: double-stranded DNA, one strand shown
# Sample: in vitro
# Concentration: not given
# Notes: 8-mer, flanks averaged, mean of 2 arrays, mostly near background
# Relative to: not given
# Direction: higher = stronger binding
# Construct (chain): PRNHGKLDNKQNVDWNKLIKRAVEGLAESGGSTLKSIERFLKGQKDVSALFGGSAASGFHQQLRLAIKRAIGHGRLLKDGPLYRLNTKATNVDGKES
Sequence,E-score
AGAGACTA,-0.119
ATGGGACA,-0.168
AACTCAGG,0.0869
AGAAGGCT,-0.29
AGACAGTA,-0.00747
GATTGGAC,0.0253
ATACTTTA,-0.0865
CATCACGA,-0.0708
CCCGCAGA,0.18
TGCATTAA,0.044
AGGGTATG,0.0457
CCTCTGAC,0.0981
ATTAAGCA,0.0204
CCGTAGTC,-0.251
AGCCATTG,0.0141
AGTCCAAC,-0.067
AATAGGAC,-0.231
CCTGCAAC,0.0451
GCTAAGAA,0.0194
AAGCAGTC,-0.146
GCGATCCC,0.00394
TGCAGGAA,-0.0353
GCCCCCGC,0.256
ACATTGCG,-0.102

# Sample 2
# Target: RNA binding protein fox-1 homolog 2, RRM domain, GST-SBP tag (RBFOX2, Homo sapiens, UniProt O43251-10, residues 100-194)
# Technique: RNA Bind-n-Seq
# Molecule type: RNA
# Sample: in vitro
# Concentration: 365 nM
# Notes: natural RNA segment, single round, ends assumed
# Relative to: no-protein control
# Direction: higher = stronger binding
# Constant ends, left off below: GGGAGUUCUACAGUCCGACGAUC … UGGAAUUCUCGGGUGCCAA
# Construct (chain): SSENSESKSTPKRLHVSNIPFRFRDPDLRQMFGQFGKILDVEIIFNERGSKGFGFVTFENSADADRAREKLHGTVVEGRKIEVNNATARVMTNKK
Sequence,RBNS enrichment (R)
CCUGGGUCCGACUUCCCAAACACACUGGAGCUCGUUGAGCUGGCUGCGCAGCCUGCUUUGUCCUCCCAUCUCCGUGGACUCUGUGAAAAUGCCAAAGGAAGGAAGCCUCA,1.09
UGCCUCCACCCAGGAGACUGAUGCACAAGAUCUGUUUGUGAAAGCCUGAUUUAAAAAGAAAAAAAAAAUUCCUUAAGCCAAAUGGUGUUCCAAGUUGGUUGCUGUGACAA,0.62
GAGAGCAGUGAUGCGGAUGGGUACCCGGGCACACCAGCCCUCAGAGACCUGAGCUCUUCUGGCCACGUGGAACCUCGAACCCGAGCUCCUGCAGAAGUGGCCCUGGAGAU,0.312
UUCCCAAACAGAGCAGUUAACUUUACUCUUGGUUCUGAGUCUCCAAAUAAUAAUAGCCGACGUUUAUUGAGCACUUACUAUGUGCCCAACCCUGUUAUGCCUUUCUCAGG,0.376
ACGUAUGAGUACCUCACGAGAUUGCCACCCUACUCCGCCGAAAGGGUGGAAAACUAGAGAGAUCACCCUCGACCUGCCUGGGUAGGGCUGGCAGUAGCUGUCCCAGCCUC,0.252
UAAGACUAAGAUCUGUCUUUUUGGUGACUAACCCUUCAAUUCUUUCAACUCCUGUUAAUACCCAUAAUCAGUAACCUAUCAAGAAAAGCCCUUAUUUGGAAAGUGUGAAA,0.514
AACAAGAAGAAAACCAACCCAAACCAGUGAAGUUUUUUAGAACCUUUAGAAGGGUGGUCUUUAUUCAGGUUUUACUGUAAUGGUAAGGAUUGACUCAAGAGACAGUAUUA,0.399
AUGUGUAAUGGAGAUUGCCUCAAAAUUGUGUCCACAUAAUCCACGCUCAUCUUGCAAAGCGCUAUUUCAGGCACAUCAUUGGAAUACAGGAAGUAGCCCUGCACCUGCCA,0.273
AGGAUGCCCUAGUCCUUGAUGGGGCAGGGUAGGACCUCUGGGGCAGAUGGCCUCCCUGCUCUUCUGGCCCCCAUGUCAUAGUUAAAACUGACAAGGAUUUGAAAAAGACU,0.277
CUGGGUGGCUCCUCGCCUUGGGGGCUCCUGGCCCUGAGGCUGGCGGUGGCCGCAUGCCGGCGCGUGUCUGUUUCUGUGCGGCGGCUCAGGGUGGCGCGGCUGCUGCUCAC,1.46
UGCUGAAGCAUUGUAAUCAAGUUUGUAUUGUACAGUCAAAUGUAAGAAAAUAAAAAAAUUCUAGUCUCUUUGAUAUGACAUGCAAAAUAGAAGAGUGGCAAACAAGCUCA,0.515
CGCAUUCUCGUGGUCUAGGCUGGGGGAGGGGUUAUCCACCUGUAGCUCUUUCAAUUGAGGUGGUUCUCAUUCUUGCUUCUCUGUGUCCCCCAUAGGCUAAUACCCCUGGC,0.555

# Sample 3
# Target: Ras GTPase-activating protein-binding protein 1, C-terminal RGG region (G3BP1, Homo sapiens, UniProt Q13283)
# Chain of UniProt Q13283 (whole entry, looked up): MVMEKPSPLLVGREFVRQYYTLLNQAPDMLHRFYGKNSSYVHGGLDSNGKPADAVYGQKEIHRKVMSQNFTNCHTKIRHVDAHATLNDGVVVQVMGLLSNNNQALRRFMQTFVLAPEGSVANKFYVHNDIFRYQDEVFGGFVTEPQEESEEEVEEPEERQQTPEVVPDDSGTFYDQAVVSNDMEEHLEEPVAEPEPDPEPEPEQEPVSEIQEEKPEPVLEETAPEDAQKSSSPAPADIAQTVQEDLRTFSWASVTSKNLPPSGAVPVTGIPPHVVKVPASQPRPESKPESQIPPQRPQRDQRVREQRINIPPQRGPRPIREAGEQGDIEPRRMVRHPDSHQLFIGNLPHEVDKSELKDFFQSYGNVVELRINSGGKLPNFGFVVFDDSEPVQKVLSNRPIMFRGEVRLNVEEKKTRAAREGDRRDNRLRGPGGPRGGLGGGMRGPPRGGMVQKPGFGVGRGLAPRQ
# Technique: RNA Bind-n-Seq
# Molecule type: RNA
# Sample: in vitro
# Concentration: 1 µM
# Notes: whole 134-nt RNA, ends assumed
# Together with: 150 mM KCl
# Relative to: input library
# Direction: higher = stronger binding
# Constant ends, left off below: GGGAGUUCUACAGUCCGACGAUC … UGGAAUUCUCGGGUGUCAAGG
Sequence,log2 enrichment
CUGUGCUACACAUCGUAUGUACCGAAUCGGGUUUUUUGGGGUUUUUUGGGGUUUUUUGGGGAAAGUAUUAUGUUACGCCGUUCGGAUCUG,-0.415
AUAGAUUGCGCAGUCUCUUUGUGGAGAGGACUUGAUCAUUAAAGGAAUCAGCGUUCAUAUAUCCAAUGCCGAACCUAAGCACAAUAGCAA,-0.559
CAAGUCCUGUGCUACACAUCGUAUGUACCGAAUCGGGGCCGGGCCGGGGCCGGGGAAAGUAUUAUGUUACGCCGUUCGGAUCUGCACUUC,-0.781
AAGUCCUGUGCUACACAUCGUAUGUACCGAAUCGGUUUUUUUGGAAAGGAAAAAGGAAAGUAUUAUGUUACGCCGUUCGGAUCUGCACUU,-2.12
UGGGAGGUGGAUUUUGUUUAUUUUUUUAGCUCAUUUCCAGGGGUGGGAAUUUUUUUUUAAUAUGUGUCAUGAGUAAAGUUGUUUUUGAAA,2.61
GUCCUGUGCUACACAUCGUAUGUACCGAAUCGGGGAAAGGGGAAAGGGGUUUUUGGGGAAAGUAUUAUGUUACGCCGUUCGGAUCUGCAC,3.11
AGUCCUGUGCUACACAUCGUAUGUACCGAAUCGGGAAAAAGGGGAAAAAGGAAAAAGGAAAGUAUUAUGUUACGCCGUUCGGAUCUGCAC,-1.69
CUCAAGUCCUGUGCUACACAUCGUAUGUACCGAAUCGGAAAGGAAAGGAAAGGAAAGUAUUAUGUUACGCCGUUCGGAUCUGCACUUCCA,-1.5
CCUCAAGUCCUGUGCUACACAUCGUAUGUACCGAAUCGGGAGGGAGGAGGGGAAAGUAUUAUGUUACGCCGUUCGGAUCUGCACUUCCAG,1.17
UCAAGUCCUGUGCUACACAUCGUAUGUACCGAAUCGGAAAAAAAGGAGGUUUGGAAAGUAUUAUGUUACGCCGUUCGGAUCUGCACUUCC,-1.51
ACCAUGCAGGUGGGCAUCUUUGGGAAGUAGGGCAAGGGGGGGAUAGGGAGGGGGGUAACACUUUGGGAACAGGUGGUCCCAGGUCGUUUC,-1.04
GUCCUGUGCUACACAUCGUAUGUACCGAAUCGGGUUUUUGGGAAAAAGGGUUUUUGGGAAAGUAUUAUGUUACGCCGUUCGGAUCUGCAC,-0.158
GUCCUGUGCUACACAUCGUAUGUACCGAAUCGGUUUUUGGUUUUUGGGGUUUUUGGGGAAAGUAUUAUGUUACGCCGUUCGGAUCUGCAC,-0.831
UAACUUUAGAGGAGGAUCUGAUGGAUAUGGCAGUGGACGUGGAUUUGGGGAUGGCUAUAAUGGGUAUGGAGGAGGACCUGGAGGUGGUAA,-0.556

# Sample 4
# Target: Interferon regulatory factor 3, full length, phosphomimetic (IRF3, Homo sapiens, UniProt Q14653, residues 1-427, S386D/S396D/S398D/S402D/T404D/S405D)
# Technique: protein-binding microarray
# Molecule type: double-stranded DNA, one strand shown
# Sample: in vitro
# Concentration: 2540 nM top
# Notes: 60-bp whole probe
# Together with: salmon DNA 0.4 mg/ml
# Relative to: random background probes
# Direction: higher = stronger binding
# Constant ends, left off below: GCCTAGCAC … GTCTTGATTCGCTTGACGCTGCTG
# Construct (chain): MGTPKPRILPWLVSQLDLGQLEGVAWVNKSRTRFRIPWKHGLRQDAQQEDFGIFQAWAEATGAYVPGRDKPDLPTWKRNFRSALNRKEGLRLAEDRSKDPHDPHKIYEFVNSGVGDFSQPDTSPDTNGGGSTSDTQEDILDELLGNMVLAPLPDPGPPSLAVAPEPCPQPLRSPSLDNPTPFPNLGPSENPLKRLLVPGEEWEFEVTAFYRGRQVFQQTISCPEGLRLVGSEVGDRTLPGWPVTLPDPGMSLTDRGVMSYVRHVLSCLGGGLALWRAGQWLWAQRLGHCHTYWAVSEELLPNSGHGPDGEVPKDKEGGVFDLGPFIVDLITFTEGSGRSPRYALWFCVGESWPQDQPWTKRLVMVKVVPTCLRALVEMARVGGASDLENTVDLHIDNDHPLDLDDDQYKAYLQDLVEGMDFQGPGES
Sequence,fitted relative affinity
TCACCTCTTTCTCTGCTACTGTGCTAG,1.76 z-score
TCAGAGCTCCTCCTTCTCACTGTGCTA,0.172 z-score
TTTCTCTGCTCTTTTCAACAAGTGCTA,2.98 z-score
GACGGTATCGGGTAGCGGGACGTGCTA,0.918 z-score
GACGATTTCGGGACTGGAGCCGTGCTA,1.74 z-score
GACGGACTGGACTCTCGGGACGTGCTA,-0.488 z-score
TTAGGTATCCTTTTCCCTTAGTGCTAG,8.72 z-score
TAAGGTTTCGGGTTTCGGTTAGTGCTA,6.49 z-score
TTAGGACTGCTTATCCCTTAGTGCTAG,-0.226 z-score
TAAGAACTGAGTTTCGATTAGTGCTAG,2.56 z-score
TTAGGTCTCGGACTGAGTTAGTGCTAG,-0.284 z-score
TTAGGGATCGACACTGGGTTAGTGCTA,-0.535 z-score
TTAGGTTTCGGTTCCGGTCAGTGCTAG,10.9 z-score
GAGGGACTGGGGTTTCGGGACGTGCTA,0.398 z-score
GACGGTCTCCTTTTCCTCACGTGCTAG,4.9 z-score
TCATTTTTCTCAACCGTACTGTGCTAG,1.64 z-score
GACGGTCTCGCTTTCGGGACGTGCTAG,2.04 z-score
TTAGGTCACGGTCTCGGTTAGTGCTAG,0.188 z-score
TTAGGCCTGGACTATCGGTTAGTGCTA,-0.825 z-score

# Sample 5
# Target: Sal-like protein 4, full length isoform B (SALL4, Homo sapiens, UniProt Q9UJQ4-2, residues 1-616)
# Technique: universal PBM
# Molecule type: double-stranded DNA, one strand shown
# Sample: in vitro
# Concentration: not given
# Notes: 8-mer, flanks averaged, mean of replicates
# Direction: higher = stronger binding
Sequence,E-score
TCCGAAGA,-0.0216
CACCCCCA,-0.00412
TAGAAGCA,0.0466
AGCGTTTC,-0.119
ACAACTAG,-0.054
CTTCAGGC,-0.201
ACATTGCA,0.0432
ACTTGCCT,-0.0656
ATGTCTGC,0.00561
CGCGGCAA,-0.181
GTTTTTTA,0.196
GAACCGAA,0.0411
ACCACAGG,-0.0888
CCAACACC,-0.275
CTGAGCCA,-0.252
AGCATGGA,-0.0997
AATGTCCA,0.083
CGCCCACG,-0.273
AGATGCTG,-0.0556
CCTAATTA,0.204
ACTGCCTC,-0.149

# Excerpt of the above (sample 2):
Sequence,RBNS enrichment (R)
CCUGGGUCCGACUUCCCAAACACACUGGAGCUCGUUGAGCUGGCUGCGCAGCCUGCUUUGUCCUCCCAUCUCCGUGGACUCUGUGAAAAUGCCAAAGGAAGGAAGCCUCA,1.09
AGGAUGCCCUAGUCCUUGAUGGGGCAGGGUAGGACCUCUGGGGCAGAUGGCCUCCCUGCUCUUCUGGCCCCCAUGUCAUAGUUAAAACUGACAAGGAUUUGAAAAAGACU,0.277
CGCAUUCUCGUGGUCUAGGCUGGGGGAGGGGUUAUCCACCUGUAGCUCUUUCAAUUGAGGUGGUUCUCAUUCUUGCUUCUCUGUGUCCCCCAUAGGCUAAUACCCCUGGC,0.555
UAAGACUAAGAUCUGUCUUUUUGGUGACUAACCCUUCAAUUCUUUCAACUCCUGUUAAUACCCAUAAUCAGUAACCUAUCAAGAAAAGCCCUUAUUUGGAAAGUGUGAAA,0.514
ACGUAUGAGUACCUCACGAGAUUGCCACCCUACUCCGCCGAAAGGGUGGAAAACUAGAGAGAUCACCCUCGACCUGCCUGGGUAGGGCUGGCAGUAGCUGUCCCAGCCUC,0.252
UGCCUCCACCCAGGAGACUGAUGCACAAGAUCUGUUUGUGAAAGCCUGAUUUAAAAAGAAAAAAAAAAUUCCUUAAGCCAAAUGGUGUUCCAAGUUGGUUGCUGUGACAA,0.62
CUGGGUGGCUCCUCGCCUUGGGGGCUCCUGGCCCUGAGGCUGGCGGUGGCCGCAUGCCGGCGCGUGUCUGUUUCUGUGCGGCGGCUCAGGGUGGCGCGGCUGCUGCUCAC,1.46
UGCUGAAGCAUUGUAAUCAAGUUUGUAUUGUACAGUCAAAUGUAAGAAAAUAAAAAAAUUCUAGUCUCUUUGAUAUGACAUGCAAAAUAGAAGAGUGGCAAACAAGCUCA,0.515
AUGUGUAAUGGAGAUUGCCUCAAAAUUGUGUCCACAUAAUCCACGCUCAUCUUGCAAAGCGCUAUUUCAGGCACAUCAUUGGAAUACAGGAAGUAGCCCUGCACCUGCCA,0.273
UUCCCAAACAGAGCAGUUAACUUUACUCUUGGUUCUGAGUCUCCAAAUAAUAAUAGCCGACGUUUAUUGAGCACUUACUAUGUGCCCAACCCUGUUAUGCCUUUCUCAGG,0.376
